Experimental data gathered from unrelated publications.
Each line is one published result; not all experiments were run side by side. Values joined by “and” are separate records of one study, mostly repeats; a detail may differ. ± marks the error that the study gave. ≈ marks a conversion by molar mass, not a printed value.

For `N[C@@H](CC(=O)N1CCc2c(nc(C(F)(F)F)nc2C(F)(F)F)C1)CN1CC(F)(F)CCC1=O`, “Cmax ratio steady state” read 1.01 (healthy Korean men, plasma; oral, dose not given, with: glimepiride; relative to: with over without glimepiride).
The enantiomeric fraction of `Clc1cc(Cl)c(-c2c(Cl)ccc(Cl)c2Cl)cc1Cl` is reported as 0.46 (rat liver microsomes; 50 µM, 30 min, remaining parent PCB).
With `c1ccc2c(-c3cnn4cc(-c5ccc(N6CCNCC6)cc5)cnc34)ccnc2c1` the EC100 toxicity was 20 µM (zebrafish embryos; dose not given).
The AUC0-inf ratio of `N#Cc1ccc(N2N=C3c4ccc(C(=O)N5CCC(O)CC5)nc4CC[C@@H]3[C@@H]2C2CCCC2)cc1Cl` is reported as ~2 fold (human, plasma; concentration not given, with: itraconazole; relative to: with itraconazole over alone).
With `CNC(=O)c1ccc(-c2cnn3ccc(C(=O)N(C)c4ccc(Cl)c(C(=O)OC)c4)cc23)cc1` the AUC was 1.61 µM·h (rat, Wistar or Sprague Dawley, male, plasma, hepatic portal vein; oral, 100 mg/kg).
`CC[C@H](C)[C@H](NC(=O)[C@@H](N)CCCNC(=N)N)C(=O)N[C@H](C(=O)N1CCC[C@H]1C(=O)N[C@@H](C)C(N)=O)C(C)C` gave an AUC(0-t) of 2420 ng·h/mL (human, plasma; intravenous, 8 mg/kg, single dose, healthy volunteers).
`CC(C)Nc1nc(Cl)nc(NC(C)C)n1` has a remaining amount of 57.4 ± 12.3% (LC-MS/MS; herbicide solution; 2 h, 40 °C, with: 365 nm UV exposure).
For `O[C@H]1CCCN[C@@H]1CCCn1cnc2c(Cl)c(Cl)ccc21`, the Cmax was 0.277 µg/mL (human, plasma; oral, 300 mg, single dose, healthy volunteers).
`[123I]c1cncc(OC[C@@H]2CCN2)c1` gave a tissue/plasma ratio of 29.2 (SPECT; human, thalamus; intravenous bolus, 9.1 mCi; relative to: plasma).
Under solubility, `COc1ccc([C@@H]2CC(=O)c3c(O)cc(O[C@@H]4O[C@H](CO[C@@H]5O[C@@H](C)[C@H](O)[C@@H](O)[C@H]5O)[C@@H](O)[C@H](O)[C@H]4O)cc3O2)cc1O` is recorded as “no effect” (shake flask; water with ethanol or surfactants (Tween 80, TPGS)).
Under “time above binding threshold”, `O=C(O)CN(CCN(CC(=O)O)CC(=O)O)CCN(CC(=O)O)CC(=O)O` is recorded as 3.6 h (beagle dog; intravenous, 300 µM, 50% binding threshold).
For `COc1cnc(-n2cnc(C)n2)c2[nH]cc(C(=O)C(=O)N3CCN(C(=O)c4ccccc4)CC3)c12`, the C12 was 409 ng/mL (human; oral, dose not given, 12 h, with: fostemsavir 600 mg BID with methadone).
`O=c1[nH]c(Cc2ccccn2)nc2c1cnn2C1CCOCC1` gave an AUC(0-inf) of 0.0209 µM·h (male human, plasma; oral, 2 mg, single dose).
`O=C(Nc1ccccc1)C1CCN(C(=O)Oc2cccnc2)CC1` has an aspartate aminotransferase of 108 U/L (human, serum; day 14).
With `Cn1cnc2c(F)c(Nc3ccc(Br)cc3Cl)c(C(=O)NOCCO)cc21` the AUC(0-10h) was 2300 to 7880 ng·h/mL (human patients; oral, 100 mg once daily, combination therapy, MTD cohort).
`CN[C@@](C)(C[18F])C(=O)O` gave a tracer uptake of 4.2 %ID/g (mouse, bone; 15 min, tumour-bearing).
The relative error of `CC1(C)S[C@@H]2[C@H](NC(=O)[C@H](C(=O)O)c3ccsc3)C(=O)N2[C@H]1C(=O)O` is reported as -1% (rat plasma; 8000 ng/mL, 24 h, room temperature, short-term stability; relative to: nominal concentration).
The tissue uptake of `CC(C)C[C@H](NC(=O)[C@H](CC(=O)O)NC(=O)CNC(=O)[C@H](CCCNC(=N)N)NC(=O)[C@H](CC(C)C)NC(=O)[C@H](CC(N)=O)NC(=O)[C@@H]1CCCN1C(=O)[C@@H](NC(=O)[C@H](C)NC(=O)[C@H](CC(N)=O)NC(=O)CCOCCOCCOCCOCCOCCOCCOCCOCCOCCOCCOCCOCCOCCOCCOCCOCCOCCOCCOCCOCCOCCOCCOCCOCCOCCOCCOCCOCCNC(=O)CN1CCN(CC(=O)O)CCN(CC(=O)O)CC1)C(C)C)C(=O)N[C@@H](CCC(N)=O)C(=O)N[C@H](C(=O)N[C@@H](CC(C)C)C(=O)N[C@@H](C)C(=O)N[C@@H](CCC(N)=O)C(=O)N[C@@H](CCCNC(=N)N)C(=O)N[C@H](C(=O)N[C@@H](C)C(=O)N[C@@H](CCCNC(=N)N)C(=O)N[C@H](C(=O)NCCOCCOCCOCCOCCOCCOCCOCCOCCOCCOCCOCCOCCOCCOCCOCCOCCOCCOCCOCCOCCOCCOCCOCCOCCOCCOCCOCCOCCC(N)=O)[C@@H](C)O)C(C)C)C(C)C` [fluorine-18 labelled] is reported as 41 ± 10 %ID/g (biodistribution, radioactivity; female athymic nude mice, DX3puroβ6/DX3puro xenografts, kidney; intravenous, 0.175 nmol, 4 h).
With `NC(=O)c1nc(F)c[nH]c1=O` the solubility was 1500 µg/mL (≈ 9.57 mM) (UV-Vis spectrophotometry; supercritical CO2; 120 min, 338 K, 24 MPa, 751.17 kg/m^3).
For `CCCCCCCCCCCCCCCCCC[N+](C)(C)CCCCCCCCCCCCCCCCCC`, “unbound fraction in blood” read 0.04 (ultrafiltration; human serum).
For `CSCC[C@@H]1NC(=O)[C@H](CC(=O)O)NC(=O)CNC(=O)[C@H](CCCNC(=N)N)NC(=O)[C@H](C)NC(=O)[C@H](CCC(=O)O)NC(=O)[C@H](CCCNC(=N)N)NC(=O)[C@@H]2CSSC[C@@H]3NC(=O)[C@H](CO)NC(=O)[C@H]([C@@H](C)O)NC(=O)[C@@H]4CCCN4C(=O)[C@H](C)NC(=O)[C@H](Cc4c[nH]c5ccccc45)NC(=O)[C@H](CC(=O)O)NC(=O)CNC(=O)[C@H](CCCNC(=N)N)NC(=O)CNC(=O)[C@H](CCC(N)=O)NC(=O)[C@@H]4CCCN4C(=O)[C@@H](NC(=O)CNC(=O)C(C)F)CSSC[C@H](NC(=O)CNC(=O)[C@H](C)NC(=O)[C@H](CC(C)C)NC(=O)[C@H](CSSC[C@@H](C(=O)NCC(N)=O)NC(=O)[C@H]([C@@H](C)O)NC(=O)[C@H](CCCNC(=N)N)NC(=O)[C@@H]4CCCN4C1=O)NC(=O)[C@H](CC(=O)O)NC(=O)[C@H](CO)NC(=O)[C@H](CC(=O)O)NC(=O)[C@H](CCC(N)=O)NC(=O)[C@H](CO)NC3=O)C(=O)N[C@@H](C(C)C)C(=O)N2` (some centres unmarked) [fluorine-18 labelled], the tissue uptake was 0.94 ± 0.05 %ID/g (nude mice U-87 MG xenograft, intestine; intravenous, 1 h).
For `Nc1nc(N)nc(N)n1`, the serum concentration was 683 µg/mL and 611 µg/mL and 356 µg/mL and 117 µg/mL (LC-MS/MS; pregnant female rat, serum; oral, 1000 mg/kg/day, 10 days).
The concentration found of `CC[C@H](C)[C@H](NC(=O)[C@H](CO)NC(=O)[C@H](C)NC(=O)[C@@H](NC(=O)CNC(=O)[C@H](CO)NC(=O)[C@@H](NC(=O)[C@@H](NC(=O)[C@H](Cc1c[nH]cn1)NC(=O)[C@@H]1CCCN1C(=O)[C@@H](NC(=O)[C@H](CC(C)C)NC(=O)[C@H](CO)NC(=O)[C@H](CC(C)C)NC(=O)[C@@H](N)Cc1ccccc1)[C@@H](C)CC)[C@@H](C)CC)C(C)C)C(C)C)C(=O)N[C@@H](C)C(=O)N[C@@H](CCCCN)C(=O)N[C@@H](Cc1c[nH]cn1)C(=O)N[C@@H](Cc1ccccc1)C(N)=O` is reported as 1.51 µg/mL (UPLC-MS/MS; rat plasma; 1.6 µg/mL, 4 h, room temperature, short-term stability).

A few entries again:
With `NC(=O)c1nc(F)c[nH]c1=O` the solubility was 1500 µg/mL (≈ 9.57 mM) (UV-Vis spectrophotometry; supercritical CO2; 120 min, 338 K, 24 MPa, 751.17 kg/m^3).
For `O[C@H]1CCCN[C@@H]1CCCn1cnc2c(Cl)c(Cl)ccc21`, the Cmax was 0.277 µg/mL (human, plasma; oral, 300 mg, single dose, healthy volunteers).
The enantiomeric fraction of `Clc1cc(Cl)c(-c2c(Cl)ccc(Cl)c2Cl)cc1Cl` is reported as 0.46 (rat liver microsomes; 50 µM, 30 min, remaining parent PCB).
The AUC0-inf ratio of `N#Cc1ccc(N2N=C3c4ccc(C(=O)N5CCC(O)CC5)nc4CC[C@@H]3[C@@H]2C2CCCC2)cc1Cl` is reported as ~2 fold (human, plasma; concentration not given, with: itraconazole; relative to: with itraconazole over alone).
